Assay results pooled from the literature.
Values joined by “and” are separate records of one study, mostly repeats; a detail may differ. Numbers after ± are the reported error.

Oc1ccccc1-c1n[nH]cc1-c1ccnc2ccccc12
log2 fold change (KSP1 (Candida albicans); kinase binding, MIB/MS competition; Candida albicans lysate; 10 µM; relative to: DMSO): 0.17

COc1cnc2cccc(N3CCc4c(cc(Cn5ccnc5C)cc4-c4cn(C)nc4C(F)(F)F)C3=O)c2c1
EC50 (MDST8; cell growth, inhibitor; 120 h): > 30000 nM

Clc1cccc(-c2c(-c3ccccn3)nc3n2CCC3)c1
IC50 (Leishmania infantum; macrophages, MHOM/MA(BE)/67/ITMAP263, amastigote): 350 nM and 2160 nM

Cn1cc(-c2ccc(-c3cncc(Cl)c3N3CCC4(CCNC4=O)CC3)cc2)cn1
log2 fold change (COLO 205; gene expression, microarray, measured: NDUFA4L2 mRNA; concentration not given, 6 h; relative to: untreated cells): 3.28

COc1cccc(C(=O)O)c1
inhibition (THP-1; pyroptotic LDH release; 2 µM, 40 min, added: LPS then nigericin): -6.66%

CCn1cc(-c2cc(Cn3ccoc3=N)cc3c2CCN([C@@H](C)c2cc(OC)ccn2)C3=O)c(C(F)(F)F)n1
EC50 (COV644; cell growth; 120 h): > 30000 nM

C[C@H](NC(=O)C(C)(F)F)[C@H](Oc1ccc2c(cnn2-c2cccc(C(=O)N[C@@H]3CCOC3)c2)c1)c1ccc2c(c1)OCCO2
EC50 (HEK293T ATF4-FLuc reporter; ATF4 reporter gene, activator, luciferase reporter): 2580 nM

O=C(CC(=O)C(F)(F)F)c1cccs1
inhibition (THP-1; pyroptotic LDH release; 2 µM, 40 min, added: LPS then nigericin): -7.32%

Cc1ccc2nc(-c3ccccc3)cn2c1
selectivity index (Leishmania infantum; MHOM/MA(BE)/67/ITMAP263; 120 h; relative to: CC50 macrophages over EC50 amastigotes): 1

CCN(CC)C(=O)/C(C#N)=C/c1cc(O)c(O)c([N+](=O)[O-])c1
inhibition (THP-1; pyroptotic LDH release; 2 µM, 40 min, added: LPS then nigericin): -23.8%

CSc1ccc2nc(-c3ccccn3)c(Nc3ccc(F)cc3)n2c1
IC50 (Leishmania infantum; macrophages, MHOM/MA(BE)/67/ITMAP263, amastigote): 8110 nM and 8300 nM

c1coc(-c2n[nH]cc2-c2ccnc3ccccc23)c1
log2 fold change (orf19.4518 Candida albicans; kinase binding, MIB/MS competition; Candida albicans lysate; 1 µM; relative to: DMSO): -0.31

O=C(c1ccc(O)cc1)c1ccc(O)cc1
inhibition (THP-1; pyroptotic LDH release; 2 µM, 40 min, added: LPS then nigericin): -5.29%

CN(c1ccc(F)cc1)c1c(-c2ccc(F)cn2)nc2ccccn12
selectivity index (Leishmania infantum; MHOM/MA(BE)/67/ITMAP263; 120 h; relative to: CC50 macrophages over EC50 amastigotes): 50.1

O=C(O)CNC(=O)Cc1ccccc1
sarcomere length (ventricular cardiomyocytes, C57BL/6 mouse; dose not given, 0.252 s): 1.65 µm

CCN1CCN(Cc2ccc(Nc3ncc(F)c(-c4cc(F)c5nc6n(c5c4)[C@H](C)CCC6)n3)nc2)CC1
disease control rate (human advanced solid tumours; 300 mg, phase Ia monotherapy RECIST 1.1): 66.7%

OC(CCN1CCCCC1)(c1ccccc1)C1CC2C=CC1C2 (centres unmarked)
power, EEG beta, O2-Pz (resting-state EEG; healthy elderly humans; oral, 2 mg, eyes closed, LS mean): 6.8 µV²

O=C(/C=C/C=C/C=C/C1CCCCC1)NC1=C[C@@](O)(/C=C/C=C/C=C/C(=O)NC2=C(O)CCC2=O)[C@@H]2O[C@@H]2C1=O
GI50 (OCUM1; cell growth, CellTiter-Glo; 78 h): > 30000 nM

N#C/C(=C1/SC[C@@H](c2ccc(Cl)cc2Cl)S1)n1ccnc1
inhibition (THP-1; pyroptotic LDH release; 2 µM, 40 min, added: LPS then nigericin): 26%

Cc1ccc2nc(-c3ccccn3)c(CN(CC(C)C)c3cccc(C(F)(F)F)c3)n2c1
selectivity index (Leishmania infantum; MHOM/MA(BE)/67/ITMAP263; 120 h; relative to: CC50 macrophages over EC50 amastigotes): 10

CCn1cc(-c2cc(Cn3ccnc3)cc3c2CCN([C@H](c2cc(OC)ccn2)C2CC2)C3=O)c(C(F)(F)F)n1
EC50 (COV644; cell growth; 120 h): > 30000 nM

CCN(CC)CCS(=O)(=O)[C@@H]1CCN2C(=O)c3coc(n3)CC(=O)C[C@H](O)/C=C(C)/C=C/CNC(=O)/C=C/[C@@H](C)[C@@H](C(C)C)OC(=O)[C@@H]12
inhibition (THP-1; pyroptotic LDH release; 2 µM, 40 min, added: LPS then nigericin): -43.3%

CCCCN(Cc1c(-c2ccccn2)nc2ccc(C)cn12)c1ccc(F)cc1
IC50 (Leishmania infantum; macrophages, MHOM/MA(BE)/67/ITMAP263, amastigote): 5940 nM and 9040 nM

COc1c(O[C@@H]2O[C@H](CO)[C@@H](O)[C@H](O)[C@H]2O)cc2c(c1O)C(=O)c1c(cc(C)c(O)c1OC)C2=O
cell viability (HK-2 co-cultured with HepaRG; MTT; 266.67 µM, 24 h; relative to: untreated control): 88 ± 10.6%

Fc1ccc(N(CC2CC2)c2c(-c3ccccn3)nc3ccccn23)cc1
IC50 (Leishmania infantum; macrophages, MHOM/MA(BE)/67/ITMAP263, amastigote): 1290 nM and 2030 nM

C=C[C@](C)(O)CC[C@@H]1[C@@]2(C)CCCC(C)(C)[C@@H]2CC[C@@]1(C)O
inhibition (THP-1; pyroptotic LDH release; 2 µM, 40 min, added: LPS then nigericin): 3.38%

Cl.Fc1ccc(Nc2nc(NCC3CCCO3)c3ccccc3n2)cc1 (centres unmarked)
inhibition (Renilla luciferase reporter mRNA; in vitro translation, inhibitor; Trypanosoma cruzi translation extract; 20 µM): 53.6%

COc1ccc(-c2c(-c3ccccn3)nc3n2CCC3)cc1OC
IC50 (Leishmania infantum; macrophages, MHOM/MA(BE)/67/ITMAP263, amastigote): 1740 nM and 2380 nM

CC(C)n1ncc2c(C(=O)NCC3(C)CNC3)cc(C3CC3)nc21
plaque area (Enterovirus D68; viral replication; RD, recombinant wild-type US/MO/14-18947; 10 µM; relative to: untreated): 0%

CCC[S+]([O-])c1ccc2[nH]c(NC(=O)OC)nc2c1 (centres unmarked)
inhibition (THP-1; pyroptotic LDH release; 2 µM, 40 min, added: LPS then nigericin): 24.4%

C[C@H](Nc1cc(-c2cnn(C)c2)cc(Nc2cnccn2)n1)c1ccc(F)cc1
EC50 (HEK293T ATF4-FLuc reporter; ATF4 reporter gene, activator, luciferase reporter): > 9960 nM

Cc1cc(O)c2c(c1)C(=O)c1cccc(O)c1C2=O
viability (HK-2 co-cultured with HepaRG; MTT; 16.67 µM, 48 h; relative to: untreated control): 92.2 ± 3.27%
